# Experimental data collected from several papers.
# Each line is one published result; not all experiments were run side by side. Values joined by “and” are separate records of one study, mostly repeats; a detail may differ. Numbers after ± are the reported error.
# FFAR4: Free fatty acid receptor 4 (FFAR4, Homo sapiens, UniProt Q5NUL3)
# Chain of UniProt Q5NUL3 (whole entry, looked up): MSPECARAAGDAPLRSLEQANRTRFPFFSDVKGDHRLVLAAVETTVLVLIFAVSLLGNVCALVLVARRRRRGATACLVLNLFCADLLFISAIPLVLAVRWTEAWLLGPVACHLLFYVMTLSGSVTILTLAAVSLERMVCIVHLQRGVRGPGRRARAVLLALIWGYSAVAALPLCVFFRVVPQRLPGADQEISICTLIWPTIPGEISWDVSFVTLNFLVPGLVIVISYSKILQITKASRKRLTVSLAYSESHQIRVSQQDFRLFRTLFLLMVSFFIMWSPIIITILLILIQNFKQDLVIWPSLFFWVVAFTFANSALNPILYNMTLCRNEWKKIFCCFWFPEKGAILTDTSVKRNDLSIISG
# Alpha-amylase: Alpha-amylase (Bos taurus, UniProt Q3MHH8)
# HRH1: Histamine H1 receptor (HRH1, Homo sapiens, UniProt P35367)
# Chain of UniProt P35367 (whole entry, looked up): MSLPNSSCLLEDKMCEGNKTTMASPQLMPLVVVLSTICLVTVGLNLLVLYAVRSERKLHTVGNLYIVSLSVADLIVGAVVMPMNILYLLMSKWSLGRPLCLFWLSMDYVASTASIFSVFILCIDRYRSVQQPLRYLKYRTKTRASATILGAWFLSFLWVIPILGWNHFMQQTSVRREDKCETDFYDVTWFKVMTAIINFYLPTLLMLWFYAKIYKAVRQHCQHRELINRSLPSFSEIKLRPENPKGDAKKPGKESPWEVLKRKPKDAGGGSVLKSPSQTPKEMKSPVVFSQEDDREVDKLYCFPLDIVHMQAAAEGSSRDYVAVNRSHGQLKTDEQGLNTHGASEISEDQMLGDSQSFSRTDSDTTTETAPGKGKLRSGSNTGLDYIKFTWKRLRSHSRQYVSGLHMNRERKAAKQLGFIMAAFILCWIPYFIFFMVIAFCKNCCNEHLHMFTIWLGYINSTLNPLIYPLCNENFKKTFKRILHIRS
# Trypanothione synthetase: Trypanothione synthetase (Trypanosoma brucei brucei, UniProt Q8IEX1)
# USP51: Ubiquitin carboxyl-terminal hydrolase 51 (USP51, Homo sapiens, UniProt Q70EK9)
# Chain of UniProt P05164 (whole entry, looked up): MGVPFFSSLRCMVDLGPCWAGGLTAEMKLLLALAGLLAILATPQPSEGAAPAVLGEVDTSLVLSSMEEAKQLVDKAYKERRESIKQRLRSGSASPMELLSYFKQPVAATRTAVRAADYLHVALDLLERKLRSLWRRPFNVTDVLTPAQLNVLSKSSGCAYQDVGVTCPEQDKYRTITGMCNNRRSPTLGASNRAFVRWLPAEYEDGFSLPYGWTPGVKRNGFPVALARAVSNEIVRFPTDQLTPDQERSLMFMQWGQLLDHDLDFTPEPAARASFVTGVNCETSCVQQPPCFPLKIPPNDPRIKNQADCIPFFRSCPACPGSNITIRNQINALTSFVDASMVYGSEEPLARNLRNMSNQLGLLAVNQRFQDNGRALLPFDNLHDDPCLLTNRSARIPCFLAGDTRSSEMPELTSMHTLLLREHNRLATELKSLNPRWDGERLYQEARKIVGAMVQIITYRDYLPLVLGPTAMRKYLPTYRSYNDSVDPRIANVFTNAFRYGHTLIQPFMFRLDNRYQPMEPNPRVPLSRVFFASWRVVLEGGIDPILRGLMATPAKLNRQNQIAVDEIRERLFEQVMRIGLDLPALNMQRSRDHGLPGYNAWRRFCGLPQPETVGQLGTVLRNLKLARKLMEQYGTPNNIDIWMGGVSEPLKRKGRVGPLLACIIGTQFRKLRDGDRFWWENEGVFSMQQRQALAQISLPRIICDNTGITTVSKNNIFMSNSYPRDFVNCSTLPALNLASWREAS
# Chain of UniProt Q70EK9 (whole entry, looked up): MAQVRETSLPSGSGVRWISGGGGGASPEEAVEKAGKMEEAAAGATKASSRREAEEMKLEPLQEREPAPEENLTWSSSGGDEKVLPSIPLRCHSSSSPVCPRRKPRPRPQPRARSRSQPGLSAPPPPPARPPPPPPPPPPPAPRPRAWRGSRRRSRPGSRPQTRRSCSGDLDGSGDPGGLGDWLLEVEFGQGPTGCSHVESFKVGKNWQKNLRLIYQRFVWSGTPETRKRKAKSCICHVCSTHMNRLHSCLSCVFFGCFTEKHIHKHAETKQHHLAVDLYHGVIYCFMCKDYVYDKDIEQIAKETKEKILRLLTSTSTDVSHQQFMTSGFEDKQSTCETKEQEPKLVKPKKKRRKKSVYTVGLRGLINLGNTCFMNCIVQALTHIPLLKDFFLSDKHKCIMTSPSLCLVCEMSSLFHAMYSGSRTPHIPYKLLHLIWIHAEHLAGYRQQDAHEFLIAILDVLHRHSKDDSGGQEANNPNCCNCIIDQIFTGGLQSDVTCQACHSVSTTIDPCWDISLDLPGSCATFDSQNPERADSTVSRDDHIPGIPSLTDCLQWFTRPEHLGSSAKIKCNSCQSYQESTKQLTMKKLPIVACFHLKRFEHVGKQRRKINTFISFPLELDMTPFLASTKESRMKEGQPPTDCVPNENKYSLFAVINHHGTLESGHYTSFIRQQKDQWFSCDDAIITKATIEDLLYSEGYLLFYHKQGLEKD
# Chain of UniProt P61073 (whole entry, looked up): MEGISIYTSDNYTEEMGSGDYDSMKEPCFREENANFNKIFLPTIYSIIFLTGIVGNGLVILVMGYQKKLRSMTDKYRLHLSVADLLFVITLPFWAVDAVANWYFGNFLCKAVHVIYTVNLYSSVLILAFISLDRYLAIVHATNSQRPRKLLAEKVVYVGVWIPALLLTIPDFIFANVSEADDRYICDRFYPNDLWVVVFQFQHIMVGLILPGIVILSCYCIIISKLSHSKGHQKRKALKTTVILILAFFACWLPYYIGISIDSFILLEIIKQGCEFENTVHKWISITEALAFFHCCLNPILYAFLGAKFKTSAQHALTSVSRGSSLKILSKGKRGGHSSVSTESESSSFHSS
# Chain of UniProt Q8N884 (whole entry, looked up): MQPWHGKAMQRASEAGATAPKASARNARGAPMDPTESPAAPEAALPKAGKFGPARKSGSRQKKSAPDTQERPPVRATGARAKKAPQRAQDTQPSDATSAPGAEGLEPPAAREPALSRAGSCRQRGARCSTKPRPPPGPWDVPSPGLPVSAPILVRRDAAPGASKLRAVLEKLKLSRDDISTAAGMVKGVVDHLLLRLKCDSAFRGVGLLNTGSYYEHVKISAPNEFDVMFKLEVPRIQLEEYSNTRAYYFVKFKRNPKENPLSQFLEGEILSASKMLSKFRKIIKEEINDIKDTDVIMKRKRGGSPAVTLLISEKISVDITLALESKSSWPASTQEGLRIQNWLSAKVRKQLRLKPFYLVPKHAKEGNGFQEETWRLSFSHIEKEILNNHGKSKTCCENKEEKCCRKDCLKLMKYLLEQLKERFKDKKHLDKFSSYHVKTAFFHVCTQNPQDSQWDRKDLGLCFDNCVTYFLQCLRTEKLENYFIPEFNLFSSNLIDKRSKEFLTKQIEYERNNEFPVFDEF
# Chain of UniProt P06239 (whole entry, looked up): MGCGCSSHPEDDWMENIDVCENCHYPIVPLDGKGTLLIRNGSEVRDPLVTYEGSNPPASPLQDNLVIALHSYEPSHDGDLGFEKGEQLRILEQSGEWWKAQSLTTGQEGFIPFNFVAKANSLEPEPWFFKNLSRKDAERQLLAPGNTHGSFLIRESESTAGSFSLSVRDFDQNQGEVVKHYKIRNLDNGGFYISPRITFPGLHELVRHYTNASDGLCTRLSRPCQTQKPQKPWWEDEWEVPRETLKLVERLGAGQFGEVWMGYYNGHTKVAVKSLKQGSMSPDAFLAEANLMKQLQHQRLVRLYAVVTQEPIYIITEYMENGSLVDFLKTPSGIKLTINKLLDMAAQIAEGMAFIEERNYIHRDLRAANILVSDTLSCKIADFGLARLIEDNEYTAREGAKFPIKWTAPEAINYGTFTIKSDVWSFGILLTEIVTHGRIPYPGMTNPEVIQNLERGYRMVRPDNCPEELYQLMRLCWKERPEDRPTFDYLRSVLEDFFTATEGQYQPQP
# Chain of UniProt P19643 (whole entry, looked up): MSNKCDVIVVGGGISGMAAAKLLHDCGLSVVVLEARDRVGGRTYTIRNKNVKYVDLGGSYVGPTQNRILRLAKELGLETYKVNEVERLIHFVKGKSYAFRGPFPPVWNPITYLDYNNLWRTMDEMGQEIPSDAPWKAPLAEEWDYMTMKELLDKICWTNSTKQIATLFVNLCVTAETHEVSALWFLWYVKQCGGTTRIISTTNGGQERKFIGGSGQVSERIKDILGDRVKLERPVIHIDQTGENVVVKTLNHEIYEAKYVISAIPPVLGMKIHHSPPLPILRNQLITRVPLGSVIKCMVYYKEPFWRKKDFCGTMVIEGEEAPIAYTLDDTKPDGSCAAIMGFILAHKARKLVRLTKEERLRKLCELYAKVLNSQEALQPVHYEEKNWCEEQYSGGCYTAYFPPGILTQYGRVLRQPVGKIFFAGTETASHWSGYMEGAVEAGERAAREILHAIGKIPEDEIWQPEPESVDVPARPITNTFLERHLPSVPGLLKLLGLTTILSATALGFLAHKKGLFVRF
Compound,target,assay,test system,setting,how to read,inhibition
O=c1cc(NCCOc2ccccc2)[nH]c(=O)[nH]1,FFAR4,"antagonist, β-arrestin recruitment",CHO cells,"10 µM, with: 4 µM TUG-891",,27 ± 6%
CC(C)c1noc2ncc(C(=O)c3ccccc3O)cc12,"Voltage-gated hydrogen channel 1 (HVCN1, Homo sapiens, UniProt Q96D96)","ion current, whole-cell patch-clamp",,"10 µM, hHv1",,3.15%
[2H]c1cc(C)c(NC(=O)c2cnc(Nc3cc(N4CCCCC4)nc(C)n3)s2)c(Cl)c1,"Tyrosine-protein kinase Lck (LCK, Homo sapiens, UniProt P06239)",,,0.0001 µM,,> 50%
CC1=NN(c2ccc(Cl)cc2)C(=O)C1=NNc1ccc(S(N)(=O)=O)cc1,Alpha-amylase,"enzyme activity, inhibitor, glucose oxidase",,"200 µg/mL, with: dextrin",,10.4%
O=C(NO)c1ccc(CN2CCCCc3ccccc32)c(F)c1,HRH1,"radioligand binding, radioligand displacement",,10 µM,,30.6%
CN(C(=O)n1cnc(-c2ccc[n+]([O-])c2)c1)C1CCCCC1,"Amine oxidase [flavin-containing] B (Maob, Rattus norvegicus, UniProt P19643)",,,10 µM,,2.47%
COc1ccc(-c2c(C)nn3c(N4CCN(c5ccccn5)CC4)cc(C)nc23)cc1OC,"C-X-C chemokine receptor type 4 (CXCR4, Homo sapiens, UniProt P61073)","arrestin recruitment, antagonist, DiscoverX arrestin",,30 µM,baseline: control,-1.69% and -1.24%
Cc1cc(-c2ccnc3[nH]cc(F)c23)cc(F)c1[C@@]1(O)[C@H](C)CN(C2CCS(=O)(=O)CC2)C[C@@H]1C,"Rho-associated protein kinase 1 (ROCK1, Homo sapiens, UniProt Q13464)","ATP probe binding, KiNativ",HEK293T cell lysate,10 µM,,40.6%
CCc1oc2ccccc2c1C(=O)c1cc(Br)c(O)c(Br)c1,"Solute carrier family 22 member 12 (SLC22A12, Homo sapiens, UniProt Q96S37, T217A)",uric acid uptake,HEK293T transfected with SLC22A12 T217A,"0.5 µM, 10 min, 37 °C, with: [14C]urate 200 µM",,69.5% and 61.8% and 72.5%
CC1=NN(c2cccc(C)c2)C(=O)C1=NNc1ccc(S(N)(=O)=O)cc1,Alpha-amylase,"enzyme activity, inhibitor, glucose oxidase",,"50 µg/mL, with: dextrin",,17.3%
O=C(Nc1cccc2c(=O)cc(-c3nnn[nH]3)oc12)c1ccc(OCCCCc2ccccc2)cc1,"Volume-regulated anion channel subunit LRRC8C, part LRRC8A IL1 chimera (LRRC8C, Homo sapiens, UniProt Q8TDW0, E6A)","ion current, inhibitor, whole-cell patch clamp",HCT LRRC8-/- cells,"3 µM, -100 mV",,90.4% and 87.4% and 86% and 94.8%
COc1ccc(CCNc2cc(=O)[nH]c(=O)[nH]2)cc1OC,FFAR4,"antagonist, β-arrestin recruitment",CHO cells,"10 µM, with: 4 µM TUG-891",,-1 ± 8%
CC[C@@H]1[C@H](F)C(=O)N[C@@H]1COc1nccc2cc(C(N)=O)c(OC)cc12,"Calcium/calmodulin-dependent protein kinase type 1D (CAMK1D, Homo sapiens, UniProt Q8IU85)","ATP-site probe binding, ActivX profiling",THP-1 cell lysate,"0.04 mM, Lys2 site",,-15.2%
O=C(CN1C(=O)Cc2c([nH]c3ccc(Br)cc23)-c2ccc(Cl)cc21)NCCN1CCCCC1,Trypanothione synthetase,"enzyme activity, inhibitor, BIOMOL Green",,30 µM,,20.5 ± 3.2%
CC1=NNC(=O)C1=NNc1ccc(S(N)(=O)=O)cc1,Alpha-amylase,"enzyme activity, inhibitor, glucose oxidase",,"100 µg/mL, with: dextrin",,13.6%
O=c1ccc2ccc(O)c(O)c2o1,USP51,inhibitor,,"1 µM, 1 h preincubation, with: Ub-AMC 250 nM",,73%
Cc1nn(-c2nc3c(F)cc(F)cc3s2)c(O)c1C(c1cccc(C(F)(F)F)c1)c1c(C)nn(-c2nc3c(F)cc(F)cc3s2)c1O,"Cyclic GMP-AMP synthase, catalytic domain; with DNA (CGAS, Homo sapiens, UniProt Q8N884)","cGAS phase separation, inhibitor",,25 µM,,85.9%
NC/C(=C\F)COc1cccc(Cn2c(=S)[nH]c(=O)c3[nH]cnc32)c1,"Myeloperoxidase (MPO, Homo sapiens, UniProt P05164)",enzyme activity,,1.667 µM,,98.8% and 99.2% and 99.4% and 99%
Cc1ccc(CCNc2cc(=O)[nH]c(=O)[nH]2)cc1,FFAR4,"antagonist, β-arrestin recruitment",CHO cells,"10 µM, with: 4 µM TUG-891",,15 ± 6%
O=C(CN1C(=O)Cc2c([nH]c3ccc(Br)cc23)-c2ccc(Cl)cc21)NC1=NCCS1,Trypanothione synthetase,"enzyme activity, inhibitor, BIOMOL Green",,30 µM,,41.3 ± 5.6%
O=c1cc(NCCCCc2ccccc2)[nH]c(=O)[nH]1,FFAR4,"antagonist, β-arrestin recruitment",CHO cells,10 µM,,21 ± 3%
CC1=NN(c2cc(Cl)ccc2Cl)C(=O)C1=NNc1ccc(S(N)(=O)=O)cc1,Alpha-amylase,"enzyme activity, inhibitor, glucose oxidase",,"10 µg/mL, with: dextrin",,14.395 ± 0.000265%
CC(C)(C)OC(=O)N1CCN(C(=O)CN2C(=O)Cc3c([nH]c4ccc(Br)cc34)-c3ccc(Cl)cc32)CC1,Trypanothione synthetase,"enzyme activity, inhibitor, BIOMOL Green",,30 µM,,18.7 ± 1.9%
CNCc1cc(-c2ccccc2F)n(S(=O)(=O)c2cccnc2)c1,Na+/K+-ATPase (pig),enzyme activity,cerebral cortex,10 µM,,8%
CCCCCCCNc1cc(=O)[nH]c(=O)[nH]1,FFAR4,"antagonist, β-arrestin recruitment",CHO cells,10 µM,,18 ± 1%
CC[C@H](C)C(=O)O[C@H]1C[C@@H](C)C=C2C=C[C@H](C)[C@H](CC[C@@H]3C[C@@H](O)CC(=O)O3)[C@H]21,USP51,inhibitor,,"1 µM, 1 h preincubation, with: Ub-AMC 250 nM",,83%
Cn1cnc(Br)c1C1=CN(c2ncnc3[nH]cnc23)CCS1,"Protein kinase C gamma type (PRKCG, Homo sapiens, UniProt P05129)",enzyme activity,,2 µM,,91.7%
COc1ccc(F)cc1C(=O)NCc1ccc(-c2nn([C@@H](C)C(F)(F)F)c(N)c2C(N)=O)cc1,"Tyrosine-protein kinase BTK (BTK, Homo sapiens, UniProt Q06187)","probe binding, competitive chemoproteomics",human PBMCs,0.1 µM,,> 90%
O=c1cc(N2CCC(Cc3ccccc3)CC2)[nH]c(=O)[nH]1,FFAR4,"antagonist, β-arrestin recruitment",CHO cells,"10 µM, with: 4 µM TUG-891",,-13 ± 7%
CC1=NCCNC(=O)C1=NNc1ccc(S(N)(=O)=O)cc1,Alpha-amylase,"enzyme activity, inhibitor, glucose oxidase",,"10 µg/mL, with: dextrin",,9.5969 ± 0.000227%
O=c1cc(NCCCCCCCO)[nH]c(=O)[nH]1,FFAR4,"antagonist, β-arrestin recruitment",CHO cells,"10 µM, with: 4 µM TUG-891",,11 ± 2%
Nc1nc(=O)n([C@H]2C[C@H](O)[C@@H](CO)O2)cc1CSCC[C@H](N)C(=O)O,"DNA (cytosine-5)-methyltransferase 3B (DNMT3B, Homo sapiens, UniProt Q9UBC3)","enzyme activity, inhibitor",,"100 µM, with: DNMT3L",,no inhibition
Cn1cc(-c2cnc3ccc(NC(=O)Nc4ccc(F)c(Br)c4)cc3n2)cn1,"Serine/threonine-protein kinase TBK1 (TBK1, Homo sapiens, UniProt Q9UHD2)","kinase binding, KiNativ profiling, item: Lys1 peptide",PANC-1 lysate,1.25 µM,,2.4%
CC(C)CCNc1cc(=O)[nH]c(=O)[nH]1,FFAR4,"antagonist, β-arrestin recruitment",CHO cells,10 µM,,24 ± 8%
CN1CCN(c2cc(-c3ccncc3)c(-c3ccc4ccccc4c3)nn2)CC1,"Somatostatin receptor type 2 (SSTR2, Homo sapiens, UniProt P30874)","antagonist, FLIPR",,10 µM,,28.7%
CC(C)NCC(O)COc1cccc2ccccc12 (racemic),rat β-Adrenergic receptor,binding,,1 × 10 µM,,100%
COc1cc(C(=O)OCCCN2CCCN(CCCOC(=O)c3cc(OC)c(OC)c(OC)c3)CC2)cc(OC)c1OC,"Equilibrative nucleoside transporter 2 (Homo sapiens, UniProt Q14542)","nucleoside transport, inhibitor",MDCKII cells expressing ENT2,"6.31 µM, with: adenosine",,49.4% and 51.6%
OCCCN1CC[C@@H]2C[C@H]1c1cc(-c3ccc(C(F)(F)F)cc3)ccc12,HRH1,"radioligand binding, PDSP competition binding",,10 µM,,< 50%
CC[C@]12CCCN3CCc4c(n(c5ccccc45)[C@@](O)(C(=O)OC)C1)[C@@H]32,"Neuropeptide S receptor, isoform B (NPSR1, Homo sapiens, UniProt Q6W5P4)","beta-arrestin recruitment, antagonist, PathHunter chemiluminescence",,"20 µM, with: agonist at EC80",,-15%
CCN1/C(=C/C(C)=O)Sc2ccc(F)cc21,HRH1,,,10 µM,,7.61%
Cc1nn(-c2nc3ccccc3s2)c(O)c1C(c1ccccc1C(=O)O)c1c(C)nn(-c2nc3ccccc3s2)c1O,"Cyclic GMP-AMP synthase (CGAS, Homo sapiens, UniProt Q8N884)","enzyme activity, inhibitor, pyrophosphatase-coupled",,"100 µM, 1.5 h, with: HT-DNA",,93.8%
CC1=NN(c2ccc(C)cc2)C(=O)C1=NNc1ccc(S(N)(=O)=O)cc1,Alpha-amylase,"enzyme activity, inhibitor, glucose oxidase",,"500 µg/mL, with: dextrin",,31.7%
CCN1CCN(Cc2ccc(NC(=O)c3ccc(C)c(/C=C/c4cnc5[nH]ccc5c4OC)c3)cc2C(F)(F)F)CC1,"Serine/threonine-protein kinase/endoribonuclease IRE1 (ERN1, Homo sapiens, UniProt O75460)",,A-375,5 µM,,-26.4%
CC1=NN(c2ccc(F)cc2)C(=O)C1=NNc1ccc(S(N)(=O)=O)cc1,Alpha-amylase,"enzyme activity, inhibitor, glucose oxidase",,"50 µg/mL, with: dextrin",,8.25%
O=C(O[C@@H]1COC(=O)c2cc(O)c(O)c(O)c2-c2c(cc(O)c(O)c2O)C(=O)O[C@H]1[C@@H]1OC(=O)c2cc(O)c(O)c(O)c2-c2c(O)c(O)c(O)c3c2C(=O)O[C@H]1[C@@H]3O)c1cc(O)c(O)c(O)c1,hyaluronidase (bovine testes),enzyme activity,,200 µg/mL,,32.7 ± 1.9%
O=C(CN1C(=O)Cc2c([nH]c3ccc(Br)cc23)-c2ccc(Cl)cc21)N1CCCCC1,Trypanothione synthetase,"enzyme activity, inhibitor, BIOMOL Green",,30 µM,,19.9 ± 2.5%
CC1=NNC(=S)NC(=O)C1/N=N/c1ccc(S(N)(=O)=O)cc1 (centres unmarked),Alpha-amylase,"enzyme activity, inhibitor, glucose oxidase",,"200 µg/mL, with: dextrin",,17.5%

# For quick reference, copied from above:
Compound,target,assay,test system,setting,how to read,inhibition
CN(C(=O)n1cnc(-c2ccc[n+]([O-])c2)c1)C1CCCCC1,"Amine oxidase [flavin-containing] B (Maob, Rattus norvegicus, UniProt P19643)",,,10 µM,,2.47%
CC[C@]12CCCN3CCc4c(n(c5ccccc45)[C@@](O)(C(=O)OC)C1)[C@@H]32,"Neuropeptide S receptor, isoform B (NPSR1, Homo sapiens, UniProt Q6W5P4)","beta-arrestin recruitment, antagonist, PathHunter chemiluminescence",,"20 µM, with: agonist at EC80",,-15%
CCc1oc2ccccc2c1C(=O)c1cc(Br)c(O)c(Br)c1,"Solute carrier family 22 member 12 (SLC22A12, Homo sapiens, UniProt Q96S37, T217A)",uric acid uptake,HEK293T transfected with SLC22A12 T217A,"0.5 µM, 10 min, 37 °C, with: [14C]urate 200 µM",,69.5% and 61.8% and 72.5%
O=c1cc(NCCOc2ccccc2)[nH]c(=O)[nH]1,FFAR4,"antagonist, β-arrestin recruitment",CHO cells,"10 µM, with: 4 µM TUG-891",,27 ± 6%
Nc1nc(=O)n([C@H]2C[C@H](O)[C@@H](CO)O2)cc1CSCC[C@H](N)C(=O)O,"DNA (cytosine-5)-methyltransferase 3B (DNMT3B, Homo sapiens, UniProt Q9UBC3)","enzyme activity, inhibitor",,"100 µM, with: DNMT3L",,no inhibition
CCN1CCN(Cc2ccc(NC(=O)c3ccc(C)c(/C=C/c4cnc5[nH]ccc5c4OC)c3)cc2C(F)(F)F)CC1,"Serine/threonine-protein kinase/endoribonuclease IRE1 (ERN1, Homo sapiens, UniProt O75460)",,A-375,5 µM,,-26.4%
